Results gathered from unrelated publications.
“And” joins repeats or separate records; there may be more than shown. Numbers after ± are the reported error.
Albumin: Albumin (Mus musculus, UniProt P07724)
Chain of UniProt P07724 (whole entry, looked up): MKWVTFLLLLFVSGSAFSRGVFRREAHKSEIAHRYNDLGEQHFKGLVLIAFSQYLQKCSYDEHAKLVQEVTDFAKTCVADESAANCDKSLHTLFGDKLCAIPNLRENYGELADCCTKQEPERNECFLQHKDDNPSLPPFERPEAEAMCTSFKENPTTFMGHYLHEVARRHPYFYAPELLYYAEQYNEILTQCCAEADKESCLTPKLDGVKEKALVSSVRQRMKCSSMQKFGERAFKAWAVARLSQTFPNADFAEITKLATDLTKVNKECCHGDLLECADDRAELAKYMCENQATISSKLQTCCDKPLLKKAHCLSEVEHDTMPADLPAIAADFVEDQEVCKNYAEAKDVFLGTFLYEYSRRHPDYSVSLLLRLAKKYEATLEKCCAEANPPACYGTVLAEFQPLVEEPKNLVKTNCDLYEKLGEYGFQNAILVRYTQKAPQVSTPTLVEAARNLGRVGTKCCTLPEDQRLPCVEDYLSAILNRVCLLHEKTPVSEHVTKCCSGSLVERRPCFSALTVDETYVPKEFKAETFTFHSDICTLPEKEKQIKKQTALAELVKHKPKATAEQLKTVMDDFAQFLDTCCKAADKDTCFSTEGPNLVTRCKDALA
TDP1: Tyrosyl-DNA phosphodiesterase 1 (TDP1, Homo sapiens, UniProt Q9NUW8)
Chain of UniProt P20813 (whole entry, looked up): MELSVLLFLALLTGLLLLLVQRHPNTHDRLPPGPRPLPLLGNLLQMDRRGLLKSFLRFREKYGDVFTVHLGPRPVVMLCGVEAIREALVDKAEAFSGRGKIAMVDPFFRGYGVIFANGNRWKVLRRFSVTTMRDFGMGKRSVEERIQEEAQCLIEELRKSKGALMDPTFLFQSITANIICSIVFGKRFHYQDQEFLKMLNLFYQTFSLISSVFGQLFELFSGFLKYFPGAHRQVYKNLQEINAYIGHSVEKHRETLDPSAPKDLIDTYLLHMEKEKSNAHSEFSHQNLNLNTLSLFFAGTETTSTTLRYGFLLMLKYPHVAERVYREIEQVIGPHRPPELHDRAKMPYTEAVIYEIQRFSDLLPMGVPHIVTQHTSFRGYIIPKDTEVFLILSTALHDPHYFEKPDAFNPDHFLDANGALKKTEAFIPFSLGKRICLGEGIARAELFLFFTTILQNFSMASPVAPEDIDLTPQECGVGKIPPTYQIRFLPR
Chain of UniProt Q9NUW8 (whole entry, looked up): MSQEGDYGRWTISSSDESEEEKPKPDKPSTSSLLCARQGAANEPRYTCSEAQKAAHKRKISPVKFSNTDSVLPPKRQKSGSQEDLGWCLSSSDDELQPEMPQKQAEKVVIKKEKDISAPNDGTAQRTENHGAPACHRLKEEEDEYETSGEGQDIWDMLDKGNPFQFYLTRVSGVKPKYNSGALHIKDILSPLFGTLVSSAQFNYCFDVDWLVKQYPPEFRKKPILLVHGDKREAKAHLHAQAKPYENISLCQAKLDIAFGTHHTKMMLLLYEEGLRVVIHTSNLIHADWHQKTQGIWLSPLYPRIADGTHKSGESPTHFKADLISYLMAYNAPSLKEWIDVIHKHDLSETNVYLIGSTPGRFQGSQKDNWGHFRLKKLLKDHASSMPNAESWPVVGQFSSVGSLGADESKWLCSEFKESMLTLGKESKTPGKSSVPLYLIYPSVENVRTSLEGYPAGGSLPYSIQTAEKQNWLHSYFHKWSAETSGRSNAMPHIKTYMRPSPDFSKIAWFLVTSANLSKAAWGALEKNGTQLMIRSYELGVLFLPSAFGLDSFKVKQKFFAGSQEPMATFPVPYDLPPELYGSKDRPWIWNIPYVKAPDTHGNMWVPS
Chain of UniProt O00418 (whole entry, looked up): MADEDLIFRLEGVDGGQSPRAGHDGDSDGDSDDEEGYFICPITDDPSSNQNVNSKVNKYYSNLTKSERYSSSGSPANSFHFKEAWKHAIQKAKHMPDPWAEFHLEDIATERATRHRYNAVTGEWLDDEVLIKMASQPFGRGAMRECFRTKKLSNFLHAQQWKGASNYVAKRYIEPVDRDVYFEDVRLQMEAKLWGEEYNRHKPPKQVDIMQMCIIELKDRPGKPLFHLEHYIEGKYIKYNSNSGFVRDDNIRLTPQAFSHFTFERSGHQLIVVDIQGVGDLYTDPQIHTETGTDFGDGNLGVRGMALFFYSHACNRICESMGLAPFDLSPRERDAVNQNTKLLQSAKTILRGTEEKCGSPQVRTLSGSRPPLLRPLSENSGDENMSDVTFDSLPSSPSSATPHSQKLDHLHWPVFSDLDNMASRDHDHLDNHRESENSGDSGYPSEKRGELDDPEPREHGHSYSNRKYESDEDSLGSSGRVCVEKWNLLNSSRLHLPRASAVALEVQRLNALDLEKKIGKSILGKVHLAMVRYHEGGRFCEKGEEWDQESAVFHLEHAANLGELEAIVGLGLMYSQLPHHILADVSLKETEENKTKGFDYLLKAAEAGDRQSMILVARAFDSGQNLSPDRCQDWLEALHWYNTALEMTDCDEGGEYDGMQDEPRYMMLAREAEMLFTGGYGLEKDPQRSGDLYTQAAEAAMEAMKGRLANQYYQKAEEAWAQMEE

| Structure (SMILES) | target or system | test | system | conditions | scale | quantity | result |
| --- | --- | --- | --- | --- | --- | --- | --- |
| Cc1cc(O)c(=O)c(O)cc1S(=O)(=O)c1ccccc1 | HepDES19 | cell growth or viability, MTS | – | 72 h | – | CC50 | 39.5 µM |
| CN(C)c1ccc2c(c1)C(C)(C)c1cc(N(C)C)ccc1C21OC(=O)c2c(C(=O)O)cccc21 | Albumin | binding, fluorescence titration | PBS | – | – | Kd | 10 ± 2 µM |
| N#C[C@@H]1CCCN1C(=O)CNC(=O)c1ccnc2ccc(OCCCN3CCN(C(=O)CCc4ccc5c(c4)CN4CCN(Cc6cc(CCC(=O)O)ccc6O)CC(=O)[O][Al-]([18F])([O]C(=O)C4)[O]5)CC3)cc12 (some centres unmarked) | U-87 MG tumour model | – | host not given, blood | 1 h, tumour-bearing | – | tracer uptake | 2.12 %ID/g |
| Cc1cc(O)c(=O)c(O)cc1C(=O)c1ccco1 | HepDES19 | cell growth or viability, MTS | – | 72 h | – | CC50 | 40 µM |
| Nc1nc2cc(C(=O)c3ccc(F)cc3)ccc2[nH]1 | Salmonella typhimurium | Ames preincubation test | TA1537 | 19.5 µg per plate, 3 days, without S9 | – | revertants | 15.3 revertants per plate |
| N#C[C@@H]1CC(F)(F)CN1C(=O)CNC(=O)c1ccnc2c(NC(=O)[C@H](CCCCNC(=O)CCOCCOCCOCCOCCOCCOCCNC(=O)CN3CCN(CC(=O)[O-])CCN(CC(=O)[O-])CCN(CC(=O)[O-])CC3)NC(=O)CCCc3ccc(I)cc3)cccc12.[177Lu+3] | U-87 MG tumour model | – | host not given, pancreas | 96 h, tumour-bearing | – | tracer uptake | 0.13 %ID/g |
| CNC(=O)C1CCCN(C(=O)C2CC3CCC2N3C(=O)[C@@H]2C[C@@H](O)CN2C(=O)NCc2cccc(Cl)c2F)C1 (mixture of isomers) | Cytochrome P450 2B6 (CYP2B6, Homo sapiens, UniProt P20813) | preincubation without NADPH | human | 16.7 µM | reference: negative control | remaining activity | 102% and 95.5% |
| N=C(N)NCCC[C@@H]1NC(=O)[C@H](CCCNC(=N)N)NC(=O)[C@H](CCCNC(=N)N)NC(=O)[C@@H](CCCNC(=N)N)NC(=O)[C@H](Cc2ccc3ccccc3c2)NC(=O)[C@H](Cc2ccc3ccccc3c2)NC(=O)[C@H](Cc2ccc3ccccc3c2)NC1=O | human red blood cells | haemolysis | – | 2 h, 37 °C | – | HC50 | 170 µg/mL |
| Cc1n[nH]c2nc(N)[nH]c(=O)c2c1=O | Escherichia coli | LC-MS/MS | BW25113 | 100 µM, 10 min, 37 °C | – | intracellular accumulation | 14.9 µM |
| Cc1cc(O)c(=O)c(O)cc1C(=O)O | HepDES19 | cell growth or viability, MTS | – | 72 h | – | CC50 | 50 µM |
| COc1cccc(OC)c1-c1cc(C(=O)NC2(C(=O)O)C3CC4CC(C3)CC2C4)nn1-c1ccc(C(=O)N(C)CCCN(C)C(=O)[C@H](CCCCNC(=O)[C@H](CC(C)C)NC(=O)C2OC2C(=O)O)NC(=O)CN2CCN(CC(=O)[O-])CCN(CC(=O)[O-])CCN(CC(=O)[O-])CC2)cc1C(C)C.[177Lu+3] (mixture of isomers) | HT-29 tumour model | – | host not given, blood | 7 days, tumour-bearing | – | tracer uptake | 0.0008 %ID/g |
| CCN(CC)CC#CCNc1ccnc2cc(Cl)ccc12 | Salmonella typhimurium | mini-Ames test | TA98 | 500.0 µg/well, with rat liver S9 | – | revertants | 15 revertants/well and 19 revertants/well |
| N#C[C@@H]1CC(F)(F)CN1C(=O)CNC(=O)c1ccnc2c(NC(=O)CCOCCOCCOCCOCCOCCOCCNC(=O)[C@H](CCCCNC(=O)CN3CCN(CC(=O)[O-])CCN(CC(=O)[O-])CCN(CC(=O)[O-])CC3)NC(=O)CCCc3ccc(I)cc3)cccc12.[177Lu+3] | U-87 MG tumour model | – | host not given, pancreas | 24 h, tumour-bearing | – | tracer uptake | 0.37 %ID/g |
| Cc1ncsc1-c1ccc(C(C)NC(=O)C2CC(O)CN2C(=O)C(NC(=O)CCCCCCCCCCN2CCCC(Nc3ncc(Cl)c(Nc4ccccc4S(=O)(=O)C(C)C)n3)C2)C(C)(C)C)cc1 (centres unmarked) | 22Rv1 | RNA-seq, measured: NBPF12 mRNA | – | concentration not given | reference: DMSO | log2 fold change | -1.09 |
| COc1cccc(OC)c1-c1cc(C(=O)NC2(C(=O)O)C3CC4CC(C3)CC2C4)nn1-c1ccc(C(=O)NCCNC(=O)[C@H](CCCCNC(=O)[C@H](CC(C)C)NC(=O)C2OC2C(=O)O)NC(=O)CN2CCN(CC(=O)[O-])CCN(CC(=O)[O-])CCN(CC(=O)[O-])CC2)cc1C(C)C.[177Lu+3] (mixture of isomers) | HT-29 tumour model | – | host not given, bone | 7 days, tumour-bearing | – | tracer uptake | 0.4 %ID/g |
| O=Nc1ccc(O)c(=O)cc1 | HepDES19 | cell growth or viability, MTS | – | 72 h | – | CC50 | 78.6 µM |
| O=C1C2CC3CC1CC(C(=O)N1CCN(c4ccc([N+](=O)[O-])c5ncccc45)CC1)(C3)C2 | Salmonella typhimurium | Ames test | TA98 | 0.78 µg/well, without S9 | – | mean revertant colonies | 4 colonies/well |
| CN1CCCNC(=O)c2cccc(c2)C(=O)NCCCN(C)CCCNc2cccc3c2C(=O)c2cccc(c2C3=O)NCCC1 | SAS | RNA-Seq, measured: TFB1M mRNA | – | 1 µM, 6 h | reference: untreated cells | log2 fold change | -1.39 |
| O=c1c(O)ccccc1O | HepDES19 | cell growth or viability, MTS | – | 72 h | – | CC50 | 95 µM |

| Structure (SMILES) | target or system | test | system | conditions | scale | quantity | result |
| --- | --- | --- | --- | --- | --- | --- | --- |
| C=C(NC(=O)c1csc(-c2nc3c(cc2O)-c2nc(cs2)C(=O)NC(C(C)O)C(=O)NC(=C(C)OC)c2nc(cs2)C(=O)NC2c4nc(cs4)C(=O)NC(COC(=O)c4c5c6c(cccc6n4O)COC(=O)C(OC4CC(C)(O)C(N(C)C)C(C)O4)C2OC5)c2nc-3cs2)n1)C(N)=O (centres unmarked) | – | – | cynomolgus monkey, both sexes, plasma | intravenous infusion, 3 mg/kg, multiple doses, day 7 | – | AUC(0-inf) | 23500 ng·h/mL |
| COC1CN([C@H]2CC[C@H]([C@@]3(C)Oc4c(Cl)cc(C(=O)NCc5c(SC)cc(C)[nH]c5=O)c(C)c4O3)CC2)C1 | – | RNA-seq, measured: MTUS1 | human, whole blood | dose not given, 24 h | reference: pretreatment baseline | log2 fold change | 1.81 |
| Nc1ncc(-c2cc(-c3cnn(CC(F)(F)F)c3)ncc2F)nc1C(=O)NC1CNCC(F)C1 (centres unmarked) | ARK5 | KINOMEscan | – | 1 µM | reference: DMSO control | remaining binding | 93% |
| CN1CCN(c2ccc3[nH]c(-c4ccc5[nH]c(-c6ccc(OCCCCNC(=O)c7ccc8c(c7)C7(OC8=O)c8ccc(N(C)C)cc8C(C)(C)c8cc(N(C)C)ccc87)cc6)nc5c4)nc3c2)CC1 | Albumin | binding, fluorescence titration | PBS | 1 h | – | Kd | 32 ± 16 µM |
| COc1cccc(OC)c1-c1cc(C(=O)NC2(C(=O)O)C3CC4CC(C3)CC2C4)nn1-c1ccc(C(=O)N(C)CCCN(C)CCCN(C)C(=O)[C@H](CCCCNC(=O)[C@H](CC(C)C)NC(=O)C2OC2C(=O)O)NC(=O)CN2CCN(CC(=O)[O-])CCN(CC(=O)[O-])CCN(CC(=O)[O-])CC2)cc1C(C)C.[177Lu+3] (mixture of isomers) | HT-29 tumour model | – | host not given, blood | 7 days, tumour-bearing | – | tracer uptake | 0.8 %ID/g |
| CC(C)OCCOCc1ccc(OCC(O)CN(N=O)C(C)C)cc1 (centres unmarked) | Salmonella typhimurium | Ames test | TA98 | 5000 µg/plate, 30 % hamster S9 | reference: solvent control | revertant fold increase | 1 fold |
| O=C1NC2(CC2)COc2ncc(F)cc2[C@H]2COCCN2c2ccn3ncc1c3n2 | Salmonella typhimurium | Ames test | TA97a | 50 µg/plate, 48 h, added: rat liver S9 | – | revertant colonies | 104 ± 6 revertants/plate |
| CNS(=O)(=O)Nc1nccc(Cc2c(C)c3ccc(Oc4ncccc4F)cc3oc2=O)c1F | AN3-CA | cell viability, CellTiter-Glo | – | 7 days | – | IC50 | 0.0324 µM |
| COC(=O)Nc1nc2cc(C(O)c3ccc(F)cc3)ccc2[nH]1 (centres unmarked) | Escherichia coli | Ames preincubation test | WP2 uvrA | 54.7 µg/plate, without S9 | – | revertants | 40.3 revertants/plate |
| CC(C)c1ccc(O)c(=O)c(O)c1 | HepDES19 | cell growth or viability, MTS | – | 72 h | – | CC50 | 25 µM |
| O=C(O)c1ccc(Nc2c(-c3ccc(CON=Cc4ccc(OC5=NS(=O)(=O)c6ccccc65)cc4)cc3)nc3cc(-c4ccccc4)ccn23)cc1 | TDP1 | enzyme activity, inhibitor | – | 100 µM, unpurified compound | – | inhibition | 80.8% |
| CC(C)Cc1ccc(C(C)C(=O)N[C@@H](CCCCNC(=O)CCOCCOCCOCCOCCOCCOCCNC(=O)CN2CCN(CC(=O)[O-])CCN(CC(=O)[O-])CCN(CC(=O)[O-])CC2)C(=O)Nc2cccc3c(C(=O)NCC(=O)N4CC(F)(F)C[C@H]4C#N)ccnc23)cc1.[177Lu+3] (some centres unmarked) | U-87 MG tumour model | – | host not given, stomach | 48 h, tumour-bearing | – | tracer uptake | 0.19 %ID/g |
| O=c1c(O)ccc(-c2ccncc2)cc1O | HepDES19 | cell growth or viability, MTS | – | 72 h | – | CC50 | 20 µM |
| CN1CCN(c2ccc3[nH]c(-c4ccc5[nH]c(-c6ccc(OCCCCNC(=O)c7cccc8c7C(=O)OC87c8ccc(N(C)C)cc8C(C)(C)c8cc(N(C)C)ccc87)cc6)nc5c4)nc3c2)CC1 | Albumin | binding, fluorescence titration | PBS | 1 h | – | Kd | 19 ± 15 µM |
| N=C(N)NCCC[C@@H]1NC(=O)[C@@H](CCCNC(=N)N)NC(=O)[C@H](CCCNC(=N)N)NC(=O)[C@@H](C(c2ccccc2)c2ccccc2)NC(=O)[C@H](Cc2c[nH]c3ccccc23)NC(=O)[C@@H](C(c2ccccc2)c2ccccc2)NC(=O)[C@@H](CCCNC(=N)N)NC1=O | human red blood cells | haemolysis | – | 2 h, 37 °C | – | HC50 | 240 µg/mL |
| CN1CCN(c2ccc3[nH]c(-c4ccc5[nH]c(-c6ccc(OCCCCNC(=O)c7ccc8c(c7)C7(OC8=O)c8ccc(N(C)C)cc8[Si](C)(C)c8cc(N(C)C)ccc87)cc6)nc5c4)nc3c2)CC1 | Albumin | binding, fluorescence titration | PBS | 1 h | – | Kd | 62 ± 5 µM |
| O=C(O)c1ccc(Nc2c(-c3ccc(CON=Cc4ccc(-c5cccs5)nc4)cc3)nc3cc(-c4ccccc4)ccn23)cc1 (mixture of isomers) | TDP1 | enzyme activity, inhibitor | – | 100 µM, unpurified compound | – | inhibition | 6.9% |
| COC(=O)c1c(CCl)cc(O)c(=O)c(O)c1C(=O)OC | HepDES19 | cell growth or viability, MTS | – | 72 h | – | CC50 | 72.4 µM |
| Cc1nn(-c2cccc(N)c2)c(=O)c2cnc(Nc3ccc(N4CCNCC4)cc3)nc12 | EEF2K (Homo sapiens, UniProt O00418) | enzyme activity, inhibitor | – | – | – | IC50 | > 10 µM |

A few entries again:
| Structure (SMILES) | target or system | test | system | conditions | scale | quantity | result |
| --- | --- | --- | --- | --- | --- | --- | --- |
| N#C[C@@H]1CC(F)(F)CN1C(=O)CNC(=O)c1ccnc2c(NC(=O)CCOCCOCCOCCOCCOCCOCCNC(=O)[C@H](CCCCNC(=O)CN3CCN(CC(=O)[O-])CCN(CC(=O)[O-])CCN(CC(=O)[O-])CC3)NC(=O)CCCc3ccc(I)cc3)cccc12.[177Lu+3] | U-87 MG tumour model | – | host not given, pancreas | 24 h, tumour-bearing | – | tracer uptake | 0.37 %ID/g |
| CNS(=O)(=O)Nc1nccc(Cc2c(C)c3ccc(Oc4ncccc4F)cc3oc2=O)c1F | AN3-CA | cell viability, CellTiter-Glo | – | 7 days | – | IC50 | 0.0324 µM |
| COC(=O)Nc1nc2cc(C(O)c3ccc(F)cc3)ccc2[nH]1 (centres unmarked) | Escherichia coli | Ames preincubation test | WP2 uvrA | 54.7 µg/plate, without S9 | – | revertants | 40.3 revertants/plate |
| CN1CCN(c2ccc3[nH]c(-c4ccc5[nH]c(-c6ccc(OCCCCNC(=O)c7cccc8c7C(=O)OC87c8ccc(N(C)C)cc8C(C)(C)c8cc(N(C)C)ccc87)cc6)nc5c4)nc3c2)CC1 | Albumin | binding, fluorescence titration | PBS | 1 h | – | Kd | 19 ± 15 µM |
| O=C(O)c1ccc(Nc2c(-c3ccc(CON=Cc4ccc(-c5cccs5)nc4)cc3)nc3cc(-c4ccccc4)ccn23)cc1 (mixture of isomers) | TDP1 | enzyme activity, inhibitor | – | 100 µM, unpurified compound | – | inhibition | 6.9% |
| O=c1c(O)ccccc1O | HepDES19 | cell growth or viability, MTS | – | 72 h | – | CC50 | 95 µM |
